Measurements of several laboratories.
A part holds a random share of what one study measured.
UniProt O60285, sequence (whole entry, looked up): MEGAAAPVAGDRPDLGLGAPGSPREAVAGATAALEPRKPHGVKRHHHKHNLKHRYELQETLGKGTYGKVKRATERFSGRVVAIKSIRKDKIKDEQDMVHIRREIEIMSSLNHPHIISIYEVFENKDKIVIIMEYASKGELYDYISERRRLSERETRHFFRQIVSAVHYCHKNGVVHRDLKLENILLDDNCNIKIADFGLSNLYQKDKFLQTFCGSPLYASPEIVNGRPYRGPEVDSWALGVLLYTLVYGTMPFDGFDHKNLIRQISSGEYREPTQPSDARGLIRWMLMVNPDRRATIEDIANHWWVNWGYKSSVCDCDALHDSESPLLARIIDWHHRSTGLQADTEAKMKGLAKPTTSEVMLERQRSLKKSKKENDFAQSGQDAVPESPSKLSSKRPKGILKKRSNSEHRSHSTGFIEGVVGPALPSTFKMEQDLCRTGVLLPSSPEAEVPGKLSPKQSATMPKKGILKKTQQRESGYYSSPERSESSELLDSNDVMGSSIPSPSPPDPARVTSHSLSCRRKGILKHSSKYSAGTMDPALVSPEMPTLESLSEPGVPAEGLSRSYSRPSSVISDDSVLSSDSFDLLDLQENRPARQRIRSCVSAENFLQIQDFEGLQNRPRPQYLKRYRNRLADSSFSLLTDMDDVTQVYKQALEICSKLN

Set 1
Target: Centromere-binding protein 1, full length, N-terminal tag (CBF1, Saccharomyces cerevisiae, UniProt P17106, residues 1-351)
UniProt P17106, sequence (whole entry, looked up): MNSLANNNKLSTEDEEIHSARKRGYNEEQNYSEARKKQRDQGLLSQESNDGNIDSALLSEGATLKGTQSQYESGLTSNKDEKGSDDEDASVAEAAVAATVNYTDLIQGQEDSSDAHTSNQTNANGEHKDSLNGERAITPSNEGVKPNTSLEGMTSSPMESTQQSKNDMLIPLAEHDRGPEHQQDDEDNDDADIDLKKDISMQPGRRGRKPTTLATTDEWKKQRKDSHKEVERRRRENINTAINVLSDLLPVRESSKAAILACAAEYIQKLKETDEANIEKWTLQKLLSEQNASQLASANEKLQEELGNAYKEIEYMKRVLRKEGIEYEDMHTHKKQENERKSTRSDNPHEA
Technique: protein-binding microarray
Form: double-stranded DNA, one strand shown
Medium: in vitro
Concentration: 0.8 µM
Notes: whole 60-bp probe, no competitor
Reading: higher = stronger binding
Quantity: fluorescence intensity
Constant ends, left off below: … GTCTTGATTCGCTTGACGCTGCTG
TGTACGAAGCTATGACACGATATTATAGTAGTTAGG: 532 a.u.
CTAGTGAGCTCATGTGGTGTGGTTGCTTGTCTGTTC: 550 a.u.
GAAGCACCCGCACGTGACTACACCGGGTAACGATAG: 18100 a.u.
CCTAACTACTATAGTCACATGCTATAGCTTCGTACA: 3470 a.u.
CTATATTCAAGCCAGCACATCAGCTACAGTGGATTC: 523 a.u.
GAATGTTGTGGTGATGTCGTGATACCATAAAGTTAG: 902 a.u.
GAATTCAAAATTCAGCACCTGATTTAGTAAAGGTAG: 1400 a.u.
GAAAAAAAAAAACTACATGTGCTCATGAATATATAG: 969 a.u.

Set 2
Target: Interferon regulatory factor 5, full length, phosphomimetic (IRF5, Homo sapiens, UniProt Q13568-2, residues 1-514, K96S/S451D/S453D/S456D/S462D)
Technique: protein-binding microarray
Form: double-stranded DNA, one strand shown
Medium: in vitro
Concentration: 250 nM
Notes: 60-bp whole probe
Added: salmon DNA 0.4 mg/ml
Baseline: random background probes
Reading: higher = stronger binding
Quantity: log fluorescence
Constant ends, left off below: GCCTAGCAC … GTCTTGATTCGCTTGACGCTGCTG
AAACCTCACAGTTTGTAAATGTGCTAG: 0.0532 z-score
TCAGCTTCCTCTTTCTCACTGTGCTAG: 0.678 z-score
GATGGTCTCCTACTGCTGACGTGCTAG: -0.309 z-score
GACGGTATCGAATATCGGGACGTGCTA: 2 z-score
TTAGTTATCGACTATCGGTTAGTGCTA: 7.91 z-score
ACCAGTTTTCTTTTCATTACGTGCTAG: 1.93 z-score
ACAAGTTTCTCCTTTGTAAAGTGCTAG: 2.86 z-score
TCAGATATCAGACTGGATTAGTGCTAG: 0.0148 z-score

Set 3
Target: Histone acetyltransferase KAT6A, winged helix 2, GST fusion (KAT6A, Homo sapiens, UniProt Q92794, residues 85-181)
Technique: protein binding microarray
Form: double-stranded DNA, one strand shown
Medium: in vitro
Concentration: not given
Notes: 8-mer, flanks averaged, mean of 2 arrays, mostly near background
Baseline: not given
Reading: higher = stronger binding
Quantity: E-score
Construct (chain): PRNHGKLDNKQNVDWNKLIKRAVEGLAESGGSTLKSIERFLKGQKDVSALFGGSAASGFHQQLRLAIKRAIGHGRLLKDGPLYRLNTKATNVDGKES
GCTCTATA: -0.135
ATTATCGC: 0.0986
GCCTTGCC: 0.17
CAGACCGC: 0.252
GTGTGGAA: 0.0267
CTCCATTA: -0.115
ACTAGCCC: -0.0111
ACAGGGAA: -0.102

Further values, each from its own experiment
CCC(=O)Nc1ccc2ncnc(Nc3cccc(Br)c3)c2c1 — remaining activity (NUAK family SNF1-like kinase 1 (NUAK1, Homo sapiens, UniProt O60285); enzyme activity, inhibitor; 0.5 µM; baseline: control): 87.3%

A few entries again (set 2):
TTAGTTATCGACTATCGGTTAGTGCTA: 7.91 z-score
ACCAGTTTTCTTTTCATTACGTGCTAG: 1.93 z-score
GACGGTATCGAATATCGGGACGTGCTA: 2 z-score
AAACCTCACAGTTTGTAAATGTGCTAG: 0.0532 z-score
